Experimental data of several laboratories.
Lines come from different studies, so protocols differ. Numbers after ± are the reported error.

`C#Cc1ccc(OCCc2cccc(F)c2)c(C(N)=O)c1` has a selectivity ratio of less than 1 (HepG2; 3 (unit not given); relative to: CC50 glucose over CC50 galactose).
`Cc1cc(C(C)(C)c2ccc(O)c(C)c2)ccc1O` — result for “late apoptotic cells”: 11.7 ± 1.94% (HepG2 spheroids, dissociated; annexin V-FITC/PI flow cytometry; 40 µM, 24 h).
With `N[C@H](CCC(=O)N[C@H](CCC[C@H](N)C(=O)O)C(=O)O)C(=O)O` the viability was 102% (HFF-1; 100 µg/mL).
For `CC(=O)N[C@@H](CCCCN)C(=O)N[C@@H](CC(C)C)C(=O)N[C@@H](CC(C)C)C(=O)N[C@@H](CCCCN)C(=O)N[C@@H](CC(C)C)C(=O)N[C@@H](CC(C)C)C(=O)N[C@@H](CCCCN)C(=O)N[C@@H](CCCCN)C(=O)N1CCC[C@H]1C(=O)N[C@@H](CC(C)C)C(=O)N[C@@H](CCCCN)C(=O)N[C@@H](CC(C)C)C(=O)N[C@@H](CC(C)C)C(=O)N[C@@H](CCCCN)C(N)=O`, the MHC10 was greater than 160 µM (human red blood cells; haemolysis; 6 h, 37 °C, 5% haematocrit in PBS).
With `CN(CCC=C1c2ccccc2CCc2ccccc21)N=O` the relative survival was 69.7% (TK6 expressing CYP2C19; 0.062 µM, 4 h, without S9; relative to: vehicle).
For `CC[C@H](C)[C@H](NC(=O)[C@H](CC(=O)O)NC(=O)[C@@H](NC(=O)[C@H](CC(N)=O)NC(=O)[C@@H]1CCCN1C(=O)[C@@H](NC(=O)[C@@H](N)Cc1ccccc1)[C@@H](C)O)[C@@H](C)O)C(=O)N[C@H](C(=O)N[C@H](C(=O)N[C@@H](CCCNC(=N)N)C(=O)N[C@H](C(=O)N[C@H](C(=O)NCC(=O)NCC(=O)NCC(=O)N[C@@H](CC(C)C)C(=O)N[C@@H](CCCCN)C(=O)N[C@@H](CCCCN)C(=O)N[C@@H](CC(C)C)C(=O)N[C@@H](CC(C)C)C(=O)N[C@@H](CC(C)C)C(=O)N[C@@H](CC(C)C)C(=O)N[C@@H](CC(C)C)C(=O)N[C@@H](CCCCN)C(=O)N[C@@H](CCCCN)C(=O)N[C@@H](CC(C)C)C(=O)NCC(=O)O)[C@@H](C)O)[C@@H](C)O)[C@@H](C)O)[C@@H](C)CC`, “lowest cytotoxic concentration” read 128 µg/mL (HEK-293T cells; CCK-8; 4 h, 37 °C, 10% cell death).
For `CN(C)CCON=C1c2ccccc2CCc2ccccc21`, the CC50 was 77.6 µM (African green monkey cells; 5 days).
`CN(C(=O)n1cnc(-c2ccc[n+]([O-])c2)c1)C1CCCCC1` has a concentration of 0.0917 ± 0.003 µM (COS-7 expressing human FAAH; culture supernatant; 100 nM, 0 h).
`COc1cc2c(c(OC)c1OC)-c1ccc(OC)c(=O)cc1[C@@H](NC(C)=O)CC2` gave a cytostasis of 87% (human peripheral blood lymphocytes; in vitro micronucleus test; 0.1 µg/mL, 3 h exposure, -S9, 27 h harvest).
The CC50 of `CN1CCC(=C2c3ccccc3Sc3ccccc32)CC1` is reported as 25.7 µM (African green monkey cells; 5 days).
With `Cc1ccc(OCCc2ccc(Br)cc2)c(C(N)=O)c1` the selectivity ratio was roughly 3 (HepG2; 3 (unit not given); relative to: CC50 glucose over CC50 galactose).
`COc1cc2c(N3CCN(C(=O)Nc4ccc(OC(C)C)cc4)CC3)ncnc2cc1OCCCN1CCCCC1` gave a CC50 of 11.5 µM (African green monkey cells; 5 days).
For `Oc1ccc(C2(c3ccc(O)cc3)c3ccccc3-c3ccccc32)cc1`, “late apoptotic cells” read 32.1 ± 8.42% (HepG2 spheroids, dissociated; annexin V-FITC/PI flow cytometry; 0.01 µM, 96 h).
The viability of `CCCCCCCCCCCC(=O)N[C@H](CCC(=O)NC(CCCC(N)C(=O)O)C(=O)O)C(=O)O` (stereo partly shown) is reported as 89.7% (HFF-1; 1 µg/mL).
For `CC(C)(c1ccc(O)cc1)c1ccc(O)cc1`, the necrotic cells was 30.6 ± 4.97% (HepG2 spheroids; annexin V-FITC/PI flow cytometry; 10 µM, 96 h).
The viability of `CC(C)Cn1cnc2c(N)nc3ccccc3c21` is reported as 0.7% (HFF-1; 100 µg/mL, 48 h).
`O=[N+]([O-])c1ccc(O)cc1` gave an AC50 of 58.2 µM (MDA-kb2; cytotoxicity).
Under “lowest cytotoxic concentration”, `CC(C)C[C@H](NC(=O)CNC(=O)CNC(=O)CNC(=O)[C@H](CC(N)=O)NC(=O)[C@H](Cc1ccccc1)NC(=O)[C@@H]1CCCN1C(=O)[C@H](CC(N)=O)NC(=O)[C@H](Cc1c[nH]cn1)NC(=O)[C@H](CO)NC(=O)[C@H](CCCNC(=N)N)NC(=O)[C@H](CC(=O)O)NC(=O)[C@H](CO)NC(=O)[C@H](CC(C)C)NC(=O)[C@@H](NC(=O)[C@@H](N)Cc1ccc(O)cc1)[C@@H](C)O)C(=O)N[C@@H](CCCCN)C(=O)N[C@@H](CCCCN)C(=O)N[C@@H](CC(C)C)C(=O)N[C@@H](CC(C)C)C(=O)N[C@@H](CC(C)C)C(=O)N[C@@H](CC(C)C)C(=O)N[C@@H](CC(C)C)C(=O)N[C@@H](CCCCN)C(=O)N[C@@H](CCCCN)C(=O)N[C@@H](CC(C)C)C(=O)NCC(=O)O` is recorded as greater than 256 µg/mL (HEK-293T cells; CCK-8; 4 h, 37 °C, 10% cell death).
The chance response of `O=c1ccc2ccccc2o1` is reported as 0.01% (NHEK; cell cycle arrest; concentration not given, 24 h).
With `CC(c1ccccc1)(c1ccc(O)cc1)c1ccc(O)cc1` the necrotic cells was 39.5 ± 14.1% (HepG2 spheroids; annexin V-FITC/PI flow cytometry; 1 µM, 96 h).
`Cc1c(CN2CCN(c3cccc(C(F)(F)F)c3)CC2)cc(-c2ccccc2)n1NC(=O)c1ccncc1` gave a CC50 of 14.3 µM (African green monkey cells; 5 days).
With `Nc1ncnc2c1ncn2[C@@H]1O[C@@H]2COP(=O)(O)O[C@H]3[C@@H](O)[C@H](n4cnc5c(N)ncnc54)O[C@@H]3COP(=O)(O)O[C@H]2[C@H]1O` the viability was 88.1% (HFF-1; 0.1 µg/mL).
With `CC(C)N1CCN(c2ccc(OCC3COC(Cn4cncn4)(c4ccc(Cl)cc4Cl)O3)cc2)CC1` (stereo not shown) the CC50 was 10 µM (African green monkey cells; 5 days).
For `Cn1c(N)nc2c3cccnc3ccc21`, cytotoxicity read “not toxic” (rat hepatoma cells; highest tested).
Under “micronucleus test result”, `N#C[C@@]1(n2ccc(N)nc2=O)O[C@H](CO)[C@@H](O)[C@H]1O` is recorded as “negative” (CHO; in vitro micronucleus).
For `Clc1cnn(CCCCN2CCN(c3ncccn3)CC2)c1`, the CC50 was greater than 100 µM (African green monkey cells; 5 days).
`CC(=O)N[C@@H](C)C(=O)N[C@@H](CCCCN)C(=O)N[C@@H](CC(C)C)C(=O)N[C@@H](CC(C)C)C(=O)N[C@@H](CCCCN)C(=O)N[C@@H](CC(C)C)C(=O)N[C@@H](CC(C)C)C(=O)N[C@@H](CCCCN)C(=O)N[C@@H](CCCCN)C(=O)N1CCC[C@H]1C(=O)N[C@@H](CC(C)C)C(=O)N[C@@H](CCCCN)C(=O)N[C@@H](CC(C)C)C(=O)N[C@@H](CC(C)C)C(=O)N[C@@H](CCCCN)C(N)=O` gave an MHC10 of greater than 160 µM (human red blood cells; haemolysis; 6 h, 37 °C, 5% haematocrit in PBS).
With `CCn1cc(-c2ccnc3[nH]c(-c4cccc(CN(C)C)c4)cc23)c(-c2ccc(NC(=O)N(C)C)cc2)n1` the CC50 was 9.33 µM (African green monkey cells; 5 days).
`O=S(=O)(c1ccc(O)cc1)c1ccc(O)cc1`: “early apoptotic cells” 7.15 ± 6.97% (HepG2 spheroids, dissociated; annexin V-FITC/PI flow cytometry; 0.01 µM, 96 h).
The IC10 of `CCOP(=S)(OCC)Oc1cc(C)nc(C(C)C)n1` is reported as 6.31 µM (rat hepatoma cells; cell viability; 24 h, freely dissolved concentration).
`C=CCn1c(=O)n([C@@H]2O[C@H](CO)[C@@H](O)[C@H]2O)c2nc(N)[nH]c(=O)c21` has a viability of 98.6% (HFF-1; 1000 µM, 48 h).
For `CC(=O)N[C@@H](CC(C)C)C(=O)N[C@@H](CCCCN)C(=O)N[C@@H](CC(C)C)C(=O)N[C@@H](CC(C)C)C(=O)N[C@@H](CCCCN)C(=O)N[C@@H](CCCCN)C(=O)N1CCC[C@H]1C(=O)N[C@@H](CC(C)C)C(=O)N[C@@H](CCCCN)C(=O)N[C@@H](CC(C)C)C(=O)N[C@@H](CC(C)C)C(=O)N[C@@H](CCCCN)C(N)=O`, the MHC10 was greater than 160 µM (human red blood cells; haemolysis; 6 h, 37 °C, 5% haematocrit in PBS).
`CC(C)c1ccc(NC(=O)N(C)C)cc1` gave an IC10 of 177 µM (rat hepatoma cells; cell viability; 24 h, freely dissolved concentration).
`CC[C@H](C)[C@H](NC(=O)[C@H](C)NC(=O)[C@H](CCCCN)NC(=O)[C@H](CC(N)=O)NC(=O)[C@@H](NC(=O)[C@H](CCCCN)NC(=O)[C@H](CCCCN)NC(=O)[C@H](CC(C)C)NC(=O)[C@@H](NC(=O)[C@H](CCCCN)NC(=O)CNC(=O)[C@@H](NC(=O)CNC(=O)[C@H](CC(N)=O)NC(=O)[C@@H](NC(=O)CNC(=O)[C@H](Cc1ccc(O)cc1)NC(=O)[C@H](CCCNC(=N)N)NC(=O)[C@H](CCSC)NC(=O)[C@@H](NC(=O)[C@H](CCSC)NC(=O)[C@H](C)NC(=O)[C@H](CC(C)C)NC(=O)[C@H](CCC(N)=O)NC(=O)[C@H](CCCCN)NC(=O)[C@H](CCCCN)NC(=O)[C@@H](NC(=O)[C@@H](N)CCCNC(=N)N)[C@@H](C)O)C(C)C)C(C)C)C(C)C)[C@@H](C)CC)[C@@H](C)CC)C(=O)N[C@H](C(=O)N[C@@H](CO)C(=O)N[C@@H](CCCCN)C(=O)N[C@@H](CCCCN)C(=O)N[C@@H](CC(N)=O)C(=O)N[C@@H](CCCCN)C(=O)O)C(C)C` has an HC50 of 193 µmol/L (human red blood cells; hemolysis).
`O=C(CCCN1CCC2(CC1)C(=O)NCN2c1ccccc1)c1ccc(F)cc1` has a CC50 of 81.3 µM (African green monkey cells; 5 days).
For `CC(C)C[C@H](NC(=O)CNC(=O)CNC(=O)CNC(=O)[C@H](Cc1ccc(O)cc1)NC(=O)[C@H](CC(C)C)NC(=O)[C@@H](NC(=O)CNC(=O)[C@H](Cc1ccc(O)cc1)NC(=O)[C@H](CCCCN)NC(=O)[C@H](CC(N)=O)NC(=O)[C@@H](NC(=O)[C@H](CCCCN)NC(=O)[C@H](Cc1c[nH]c2ccccc12)NC(=O)CN)[C@@H](C)O)[C@@H](C)O)C(=O)N[C@@H](CCCCN)C(=O)N[C@@H](CCCCN)C(=O)N[C@@H](CC(C)C)C(=O)N[C@@H](CC(C)C)C(=O)N[C@@H](CC(C)C)C(=O)N[C@@H](CC(C)C)C(=O)N[C@@H](CC(C)C)C(=O)N[C@@H](CCCCN)C(=O)N[C@@H](CCCCN)C(=O)N[C@@H](CC(C)C)C(=O)NCC(=O)O`, “lowest cytotoxic concentration” read 128 µg/mL (HEK-293T cells; CCK-8; 4 h, 37 °C, 10% cell death).
With `Cc1nc(-c2ccc(NCCCCCCN3C[C@H](O)[C@@H](O)[C@H](O)[C@H]3CO)c([N+](=O)[O-])c2)no1` the viability was 100% (A549 expressing ACE2; WST-1; 25 µM, 3 days).

For quick reference, copied from above:
`COc1cc2c(c(OC)c1OC)-c1ccc(OC)c(=O)cc1[C@@H](NC(C)=O)CC2` gave a cytostasis of 87% (human peripheral blood lymphocytes; in vitro micronucleus test; 0.1 µg/mL, 3 h exposure, -S9, 27 h harvest).
The CC50 of `CN1CCC(=C2c3ccccc3Sc3ccccc32)CC1` is reported as 25.7 µM (African green monkey cells; 5 days).
With `Cc1ccc(OCCc2ccc(Br)cc2)c(C(N)=O)c1` the selectivity ratio was roughly 3 (HepG2; 3 (unit not given); relative to: CC50 glucose over CC50 galactose).
`COc1cc2c(N3CCN(C(=O)Nc4ccc(OC(C)C)cc4)CC3)ncnc2cc1OCCCN1CCCCC1` gave a CC50 of 11.5 µM (African green monkey cells; 5 days).
